Results pooled from the literature.
Each numbered part is a random draw from the data of one study; scales do not carry over between parts. Substitutions count along the parent as printed.

Sample 1
Target: UBE2E3 UBC core domain (UniProt Q969T4)
Sequence of UniProt Q969T4 (whole entry, looked up): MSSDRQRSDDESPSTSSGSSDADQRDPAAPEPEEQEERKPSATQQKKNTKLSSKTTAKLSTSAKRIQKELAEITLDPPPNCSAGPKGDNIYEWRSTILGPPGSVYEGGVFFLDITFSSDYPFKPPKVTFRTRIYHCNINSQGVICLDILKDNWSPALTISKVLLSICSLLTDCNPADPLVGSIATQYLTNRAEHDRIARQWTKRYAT
Method: yeast two-hybrid
Sample: yeast
Setting: mostly zero background
Relative to: not given
Reading: higher = stronger interaction
B1: VPS41 RING domain (UniProt P49754); chain KGVLVDEENICESCLSPILPSDAAKPFSVVVFHCRHMFHKECLPMPSMNSAAQFCNICSAKNRGPGSAI
B2: SH3RF2 RING domain (UniProt Q8TEC5); chain DDLTLLDLLECPVCFEKLDVTAKVLPCQHTFCKPCLQRVFKAHKELRCPECRTPVFSNIEAL
B3: TRIM13 RING domain (UniProt O60858); chain MELLEEDLTCPICCSLFDDPRVLPCSHNFCKKCLEGILEGSVRNSLWRPAPFKCPTCRKETSATGINS
B4: RNF111 RING domain (UniProt Q6ZNA4); chain EGTEEDTEEKCTICLSILEEGEDVRRLPCMHLFHQVCVDQWLITNKKCPICRVDIEAQLPSE
B5: RC3H1 RING domain (UniProt Q5TC82); chain QAPQWTDFLSCPICTQTFDETIRKPISLGCGHTVCKMCLNKLHRKACPFDQTTINTDIELL
B6: TRIML1 RING domain (UniProt Q8N9V2); chain LMENLREELTCFICLDYFSSPVTTECGHSFCLVCLLRSWEEHNTPLSCPECWRTLEGPHFQS
B7: DTX4 RING domain (UniProt Q9Y2E6); chain QKVRHPPDEDCTICMERLTAPSGYKGPQPTVKPDLVGKLSRCGHVYHIYCLVAMYNNGNKDGSLQCPTCKTIYGVKTGTQ
B8: RNF38 RING domain (UniProt Q9H0F5); chain PNNHQSEQTLCVVCMCDFESRQLLRVLPCNHEFHAKCVDKWLKANRTCPICRADASEVHRDS
B9: RNF208 RING domain (UniProt Q9H0X6); chain SSAAAGEPLECPTCGHSYNVTQRRPRVLSCLHSVCEQCLQILYESCPKYKFISCPTCRRETVLFTDYG
Molecule | lacZ reporter activity
PAELEVQASECVVCLEREAQMIFLNCGHVCCCQQCCQPLRTCPLCRQDIAQRLRIY (LRSAM1 RING domain (UniProt Q6UWE0)) | 0
B1 (VPS41 RING domain) | 0
B2 (SH3RF2 RING domain) | 0
FQGDVDEDLICPICSGVLEEPVQAPHCEHAFCNACITQWFSQQQTCPVDRSVVTVAHLRP (RNF41 RING domain (UniProt Q9H4P4)) | 0
MPIRALCTICSDFFDHSRDVAAIHCGHTFHLQCLIQWFETAPSRTCPQCRIQVGKRTIIN (TRAIP RING domain (UniProt Q9BWF2)) | 0
B3 (TRIM13 RING domain) | 0
B4 (RNF111 RING domain) | 8410
ASLPTSEEDLCPICYAHPISAVFQPCGHKSCKACINQHLMNNKDCFFCKTTIVSVEDWE (RNF123 RING domain (UniProt Q5XPI4)) | 0
B5 (RC3H1 RING domain) | 0
B6 (TRIML1 RING domain) | 0
DHGAVGQEMCCPICCSEYVKGEVATELPCHHYFHKPCVSIWLQKSGTCPVCRCMFPPPL (PJA1 RING domain (UniProt Q8NG27)) | 0
VEPSEENSKDCVVCQNGTVNWVLLPCRHTCLCDGCVKYFQQCPMCRQFVQESFALC (CGRRF1 RING domain (UniProt Q99675)) | 0
B7 (DTX4 RING domain) | 0
B8 (RNF38 RING domain) | 0
QVDKAVFHMQSVKCLKCQEQKRAVLPCQHAALCELCAEGSECPICQPGRAHTLQS (UNK RING domain (UniProt Q9C0B0)) | 0
B9 (RNF208 RING domain) | 0

Sample 2
Target: RNA binding protein fox-1 homolog 2, RRM domain, GST-SBP tag (RBFOX2, Homo sapiens, UniProt O43251-10, residues 100-194)
Method: RNA Bind-n-Seq
Form: RNA
Sample: in vitro
Tested at: 365 nM
Setting: natural RNA segment, single round, ends assumed
Relative to: no-protein control
Reading: higher = stronger binding
Constant ends, left off below: GGGAGUUCUACAGUCCGACGAUC … UGGAAUUCUCGGGUGCCAA
Target sequence (chain): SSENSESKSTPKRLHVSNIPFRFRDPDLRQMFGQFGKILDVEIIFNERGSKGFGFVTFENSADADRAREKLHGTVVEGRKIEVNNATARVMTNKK
Strand | RBNS enrichment (R)
AGCUCUAAAACAUAGACUGAAGAUUUAUUUUUAAUAUGUUGACUUUAUUUCUGAGCAAAGCAUCGGUCAUGUGUGUAUUUUUUCAUAGUCCCACCUUGGAGCAUUUAUGU | 0.696
AAGAAAAAGGCAGAGGCUUCAGUUUUCUCUCGCCCAAGUCCCUUGCUCCUCCCAACUGCGGCUAAGCAGAGGAUGGCAGUGUUGGAAUAAGAUCUCUCAAAUCUUGGAUU | 0.302
UAGGAACAAUGCAUUCUAAUGGUACAACUGCCAAAACCCACCCUUGGUUUCUGAUGAUUUAUAAGUAACUACAAAAGAAAGAGACCUGUUCUUGAACAGAUACUAUGUCU | 0.442
ACUUCUUGAUUGUCGAUCUCUGUCACAUCCGAUGAUUGUUUUGGUUUCUAUUCCCUUUCUAACUGCCCAUCGGGCUCAGAACCCCAAUAAUCCCUUCCUUUCACUAUCUU | 0.393
AGUUCCAAAGCACAUAAGCUAGAAGAAGAAAUAUUUCUAGGAGCACUACCAUCUGUUUUCAACAUGAAAUGCCACACACAUAGAACUCCAACAUCAAUUUCAUUGCACAG | 0.843
AUUAUAGAAGGAAAUUAUACUUUAAGAAAAUGUUCACAAAAAAAAAAAAAAAAAAAGGACUAUUACAGAUCCCAAUACUUGGAUUUGGUGACCUUGUCUUUCUUUCUUUU | 0.889
GUUUUGAGACUGGGUUUCAUUCUGUAGCCCAGGCUAGCCCUGAACUUGUUACAGUGUCCUUUUUUUCUCAGCUUCAGGAUUAUGGACAUAGAUCUCCACACCUGGCUUGU | 0.374
AGUGCUACAUAGGUGCUUUGGGCGUAUGUAACAUUAGUGUCCUUCCUUGAAGCCACAAGCUAGUUUUCUUAGUUUUAAAAUCCUGUUGUAUGAAUGGCAUUUGUAUAUUA | 0.669
UCCCUGUCCUGUAAAUAUCCCUCCCCUCUCCAGUCCACCCUCAUCUCCCACCAAGAUCAGCCACCUCAGGCAUGGGGAGUAAUGAGACCAGAGCGCCUCUCUGGCACCAC | 1.06
GGGGCCAUGGACAUCUUGUGAGCCCUGCCCUCUGGCUGUAGUUGUCUGAGUGUGAGGGGUUUCAUUUCUAUGGCUAAUCCCCAAAGCUGUAACACAUAGGGCAGGUACCU | 0.257
AAUGGUCUUAACUGAAGUCCAACUUCAGUUACAAUUUUCAGAGGCUCGUUGUUUUCCCAAAGCUAAAUCUUUAUACUAAAUGCAAUACUGACUUUUUCUUAAGUAGCUAA | 0.61
CAGGUGCCUGGGGCUGGCUGCAGACGGUGUGGUUGGGGGUGGGAGGUGAGCUAGACCCAACCCUUAGCUUUUAGCCUGGCUGUCACCUUUUUAAUUUCCAGAACUGCACA | 1.41

Sample 3
Target: CCNA1, cyclin fold, Cln2 fusion (human)
Method: yeast growth competition, sequencing
Sample: yeast
Setting: weak parent motif
Relative to: not given
Reading: higher = stronger binding
Starting sequence: WEE2 docking peptide (human); KELRQKLNFSYCE
Substitution | normalised enrichment score
L7A | -0.112
N8A | 0.324
E13A | 0.048
E2A | -0.17
K6A | 0.207
K1A | -0.529

Sample 4
Target: JDP2, bZIP domain (human)
Method: DHFR protein complementation
Sample: yeast
Setting: single substitutions, most at no-binding floor
Relative to: wild-type JUN-FOS pair
Reading: higher = stronger binding
Starting sequence: JUN, bZIP domain (human); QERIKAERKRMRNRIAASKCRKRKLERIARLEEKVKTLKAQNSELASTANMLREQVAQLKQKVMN; partner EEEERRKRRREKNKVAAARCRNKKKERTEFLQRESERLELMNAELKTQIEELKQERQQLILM
Substitution | binding fitness
L38I | 0.0283 natural log
N42E | 0.217 natural log
E54T | 0.246 natural log
V56M | 0.0319 natural log
A57K | 0.31 natural log
L59R | -0.341 natural log
L38A | 0.264 natural log
A57V | 0.29 natural log
S43Q | 0.327 natural log
A49Y | 0.23 natural log
L31G | 0.0508 natural log
Q55N | 0.256 natural log
Q55D | 0.22 natural log
R53N | 0.201 natural log
A49C | 0.262 natural log
A46N | 0.33 natural log
R53L | 0.206 natural log
L38F | 0.0526 natural log
N42M | 0.176 natural log
K39W | 0.244 natural log
E44W | 0.111 natural log
T37E | 0.308 natural log

Some of these lines once more (sample 1):
Molecule | lacZ reporter activity
MPIRALCTICSDFFDHSRDVAAIHCGHTFHLQCLIQWFETAPSRTCPQCRIQVGKRTIIN (TRAIP RING domain (UniProt Q9BWF2)) | 0
B3 (TRIM13 RING domain) | 0
B4 (RNF111 RING domain) | 8410
ASLPTSEEDLCPICYAHPISAVFQPCGHKSCKACINQHLMNNKDCFFCKTTIVSVEDWE (RNF123 RING domain (UniProt Q5XPI4)) | 0
B5 (RC3H1 RING domain) | 0
B6 (TRIML1 RING domain) | 0
DHGAVGQEMCCPICCSEYVKGEVATELPCHHYFHKPCVSIWLQKSGTCPVCRCMFPPPL (PJA1 RING domain (UniProt Q8NG27)) | 0
VEPSEENSKDCVVCQNGTVNWVLLPCRHTCLCDGCVKYFQQCPMCRQFVQESFALC (CGRRF1 RING domain (UniProt Q99675)) | 0
